Measurements gathered from unrelated publications.
Compare with care: the assays were run in different laboratories. ± marks the error that the study gave.
Ptger2: Prostaglandin E2 receptor EP2 subtype (Ptger2, Rattus norvegicus, UniProt Q62928)
Sequence of UniProt Q62928 (whole entry, looked up): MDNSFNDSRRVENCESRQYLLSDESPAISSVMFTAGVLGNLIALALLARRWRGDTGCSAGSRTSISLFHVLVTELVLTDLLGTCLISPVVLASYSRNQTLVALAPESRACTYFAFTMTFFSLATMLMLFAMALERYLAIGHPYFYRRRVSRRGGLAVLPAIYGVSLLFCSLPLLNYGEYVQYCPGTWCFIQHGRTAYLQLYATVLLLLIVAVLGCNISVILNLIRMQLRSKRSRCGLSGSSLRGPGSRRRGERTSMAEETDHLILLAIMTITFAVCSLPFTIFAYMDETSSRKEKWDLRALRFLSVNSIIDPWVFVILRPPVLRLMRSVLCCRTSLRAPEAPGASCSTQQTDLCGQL
TLR8: Toll-like receptor 8 (TLR8, Homo sapiens, UniProt Q9NR97)
Sequence of UniProt Q9NR97 (whole entry, looked up): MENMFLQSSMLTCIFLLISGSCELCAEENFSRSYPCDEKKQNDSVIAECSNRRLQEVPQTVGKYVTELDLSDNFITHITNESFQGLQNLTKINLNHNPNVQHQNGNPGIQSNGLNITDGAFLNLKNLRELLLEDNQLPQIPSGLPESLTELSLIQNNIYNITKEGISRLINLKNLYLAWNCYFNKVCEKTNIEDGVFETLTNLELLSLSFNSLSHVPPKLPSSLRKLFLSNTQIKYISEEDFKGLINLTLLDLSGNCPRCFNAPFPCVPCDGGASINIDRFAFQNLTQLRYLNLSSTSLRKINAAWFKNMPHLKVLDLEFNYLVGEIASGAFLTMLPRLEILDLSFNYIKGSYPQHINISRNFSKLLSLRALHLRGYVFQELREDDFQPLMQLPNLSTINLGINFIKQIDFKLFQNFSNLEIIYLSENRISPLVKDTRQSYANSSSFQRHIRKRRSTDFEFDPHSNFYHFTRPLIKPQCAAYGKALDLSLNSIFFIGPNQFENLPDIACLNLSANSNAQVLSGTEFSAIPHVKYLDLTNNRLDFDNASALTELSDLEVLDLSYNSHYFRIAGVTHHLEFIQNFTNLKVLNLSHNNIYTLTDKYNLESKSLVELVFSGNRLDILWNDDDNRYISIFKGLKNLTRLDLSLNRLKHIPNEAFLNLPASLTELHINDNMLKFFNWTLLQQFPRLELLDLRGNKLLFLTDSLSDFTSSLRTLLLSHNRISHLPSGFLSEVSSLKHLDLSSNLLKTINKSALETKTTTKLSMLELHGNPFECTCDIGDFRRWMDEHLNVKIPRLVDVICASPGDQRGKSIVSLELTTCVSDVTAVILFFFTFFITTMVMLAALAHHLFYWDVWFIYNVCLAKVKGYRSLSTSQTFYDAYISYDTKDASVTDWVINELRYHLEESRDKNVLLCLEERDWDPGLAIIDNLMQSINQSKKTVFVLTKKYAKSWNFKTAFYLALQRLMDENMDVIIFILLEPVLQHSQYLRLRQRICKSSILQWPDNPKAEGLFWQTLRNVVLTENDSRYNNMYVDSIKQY
Mc1r: Melanocyte-stimulating hormone receptor (Mc1r, Mus musculus, UniProt Q01727)
Sequence of UniProt Q01727 (whole entry, looked up): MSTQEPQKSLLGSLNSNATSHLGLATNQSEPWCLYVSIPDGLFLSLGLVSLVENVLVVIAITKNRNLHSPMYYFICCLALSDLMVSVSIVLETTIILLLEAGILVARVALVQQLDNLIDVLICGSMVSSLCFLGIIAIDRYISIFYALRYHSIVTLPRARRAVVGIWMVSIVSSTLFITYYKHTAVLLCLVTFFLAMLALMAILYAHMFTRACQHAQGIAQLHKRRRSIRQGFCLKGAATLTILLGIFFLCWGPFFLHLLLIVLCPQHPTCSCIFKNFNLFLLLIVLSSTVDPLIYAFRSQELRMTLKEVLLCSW
DRD2: D(2) dopamine receptor (DRD2, Homo sapiens, UniProt P14416)
Sequence of UniProt P14416 (whole entry, looked up): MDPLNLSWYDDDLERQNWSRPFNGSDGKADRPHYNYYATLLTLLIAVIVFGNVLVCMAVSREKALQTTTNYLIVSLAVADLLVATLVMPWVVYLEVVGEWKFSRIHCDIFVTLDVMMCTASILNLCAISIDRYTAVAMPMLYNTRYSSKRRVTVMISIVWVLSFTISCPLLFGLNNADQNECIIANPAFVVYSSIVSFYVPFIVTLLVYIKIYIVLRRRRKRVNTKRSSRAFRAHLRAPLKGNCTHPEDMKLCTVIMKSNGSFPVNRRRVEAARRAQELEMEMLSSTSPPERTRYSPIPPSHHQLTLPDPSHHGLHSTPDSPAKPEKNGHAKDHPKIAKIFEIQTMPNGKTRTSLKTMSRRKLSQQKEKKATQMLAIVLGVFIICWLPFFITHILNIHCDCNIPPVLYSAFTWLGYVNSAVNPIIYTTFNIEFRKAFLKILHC
Sequence of UniProt P81947 (whole entry, looked up): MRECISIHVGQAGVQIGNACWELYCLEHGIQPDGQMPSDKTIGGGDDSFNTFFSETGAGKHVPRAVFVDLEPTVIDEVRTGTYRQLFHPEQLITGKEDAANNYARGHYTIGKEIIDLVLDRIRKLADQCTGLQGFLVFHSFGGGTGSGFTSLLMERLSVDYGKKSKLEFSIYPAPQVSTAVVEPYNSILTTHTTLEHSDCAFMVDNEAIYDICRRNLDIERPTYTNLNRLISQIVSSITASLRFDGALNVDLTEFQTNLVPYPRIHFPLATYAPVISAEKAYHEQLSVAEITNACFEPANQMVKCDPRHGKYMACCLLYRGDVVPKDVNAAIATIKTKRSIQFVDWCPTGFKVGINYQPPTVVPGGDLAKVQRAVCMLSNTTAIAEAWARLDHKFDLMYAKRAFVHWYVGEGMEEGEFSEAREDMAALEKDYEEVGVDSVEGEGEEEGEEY
Sequence of UniProt Q9LFP6 (whole entry, unmodified, looked up): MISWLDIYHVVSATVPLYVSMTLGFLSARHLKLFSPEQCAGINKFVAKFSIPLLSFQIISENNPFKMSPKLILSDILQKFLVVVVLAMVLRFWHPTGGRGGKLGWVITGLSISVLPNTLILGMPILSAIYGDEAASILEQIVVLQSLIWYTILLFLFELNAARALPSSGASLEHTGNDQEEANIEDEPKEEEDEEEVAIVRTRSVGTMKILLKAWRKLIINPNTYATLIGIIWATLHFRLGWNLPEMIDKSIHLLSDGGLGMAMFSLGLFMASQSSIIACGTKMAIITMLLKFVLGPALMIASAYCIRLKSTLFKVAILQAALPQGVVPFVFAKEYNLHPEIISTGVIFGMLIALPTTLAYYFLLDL
Sequence of UniProt Q9Y5N1 (whole entry, looked up): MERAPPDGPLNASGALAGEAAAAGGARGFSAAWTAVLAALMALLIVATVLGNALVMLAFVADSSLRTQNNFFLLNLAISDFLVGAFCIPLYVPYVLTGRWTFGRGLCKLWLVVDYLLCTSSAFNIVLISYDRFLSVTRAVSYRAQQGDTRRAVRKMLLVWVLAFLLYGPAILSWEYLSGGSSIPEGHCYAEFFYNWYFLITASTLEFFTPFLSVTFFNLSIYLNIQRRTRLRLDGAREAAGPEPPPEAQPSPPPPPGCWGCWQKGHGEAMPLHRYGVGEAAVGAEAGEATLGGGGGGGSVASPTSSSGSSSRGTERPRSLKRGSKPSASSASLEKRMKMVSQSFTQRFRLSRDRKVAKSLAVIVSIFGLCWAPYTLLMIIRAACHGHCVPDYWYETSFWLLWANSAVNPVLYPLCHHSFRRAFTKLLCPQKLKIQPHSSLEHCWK
Sequence of UniProt Q63371 (whole entry, looked up): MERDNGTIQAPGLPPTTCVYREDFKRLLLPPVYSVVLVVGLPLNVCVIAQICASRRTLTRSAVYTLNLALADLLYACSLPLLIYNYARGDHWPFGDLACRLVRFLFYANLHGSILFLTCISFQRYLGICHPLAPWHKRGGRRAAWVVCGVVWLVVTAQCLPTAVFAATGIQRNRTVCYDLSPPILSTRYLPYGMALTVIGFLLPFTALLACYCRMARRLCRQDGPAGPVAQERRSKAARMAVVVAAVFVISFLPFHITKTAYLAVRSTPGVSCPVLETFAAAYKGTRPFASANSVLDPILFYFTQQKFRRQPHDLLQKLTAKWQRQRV
Sequence of UniProt Q6DWJ6 (whole entry, looked up): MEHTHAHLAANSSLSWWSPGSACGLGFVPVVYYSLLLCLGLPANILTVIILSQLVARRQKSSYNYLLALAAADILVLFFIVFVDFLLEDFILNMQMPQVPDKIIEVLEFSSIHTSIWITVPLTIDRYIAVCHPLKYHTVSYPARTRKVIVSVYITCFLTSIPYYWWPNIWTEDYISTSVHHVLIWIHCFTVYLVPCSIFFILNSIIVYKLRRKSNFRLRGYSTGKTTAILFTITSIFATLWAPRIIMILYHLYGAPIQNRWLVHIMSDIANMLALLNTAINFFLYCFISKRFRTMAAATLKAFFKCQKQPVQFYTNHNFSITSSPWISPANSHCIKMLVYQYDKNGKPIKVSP
Sequence of UniProt P11473 (whole entry, looked up): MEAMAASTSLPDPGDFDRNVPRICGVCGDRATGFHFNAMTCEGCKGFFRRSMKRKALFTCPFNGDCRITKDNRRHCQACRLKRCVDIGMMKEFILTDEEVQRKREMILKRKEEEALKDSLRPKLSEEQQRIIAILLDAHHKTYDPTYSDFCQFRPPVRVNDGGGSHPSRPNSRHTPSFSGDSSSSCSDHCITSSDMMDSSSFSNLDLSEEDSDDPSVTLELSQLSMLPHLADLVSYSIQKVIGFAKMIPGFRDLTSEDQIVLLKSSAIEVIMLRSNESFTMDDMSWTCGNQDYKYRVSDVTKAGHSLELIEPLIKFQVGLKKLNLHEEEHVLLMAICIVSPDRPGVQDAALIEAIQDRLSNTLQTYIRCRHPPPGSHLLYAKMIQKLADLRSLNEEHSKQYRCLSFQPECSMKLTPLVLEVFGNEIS
Sequence of UniProt P02554 (whole entry, looked up): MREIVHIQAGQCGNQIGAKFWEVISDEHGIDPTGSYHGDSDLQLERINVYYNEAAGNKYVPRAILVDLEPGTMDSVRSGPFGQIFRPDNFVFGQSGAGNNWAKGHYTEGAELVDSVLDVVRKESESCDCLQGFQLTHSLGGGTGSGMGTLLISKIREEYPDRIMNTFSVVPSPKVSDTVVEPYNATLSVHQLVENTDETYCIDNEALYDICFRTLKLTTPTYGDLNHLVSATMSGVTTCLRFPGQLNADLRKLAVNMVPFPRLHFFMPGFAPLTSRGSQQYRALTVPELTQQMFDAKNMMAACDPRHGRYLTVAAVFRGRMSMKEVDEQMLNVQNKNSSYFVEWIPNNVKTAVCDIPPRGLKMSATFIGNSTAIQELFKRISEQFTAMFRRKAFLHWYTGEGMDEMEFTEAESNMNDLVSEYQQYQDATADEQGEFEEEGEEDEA

| Structure (SMILES) | target | assay | system | conditions | EC50 [µM] |
| --- | --- | --- | --- | --- | --- |
| CCCCC[C@H](O)/C=C/[C@H]1CC(F)(F)C(=O)N1CCCCCCC(=O)O | Ptger2 | cAMP, agonist | – | – | > 10 |
| N=C(N)NCCC[C@H](NC(=O)[C@H](Cc1ccccc1)NC(=O)[C@@H](N)Cc1cnc[nH]1)C(=O)N[C@@H](Cc1c[nH]c2ccccc12)C(=O)O | GPR139 (Homo sapiens, UniProt Q6DWJ6) | calcium signal, agonist, fluorescence | – | – | 3.98 |
| CCCNc1nc2c(N)nc3ccccc3c2s1 | TLR8 | reporter gene, agonist | – | – | 3.94 |
| CCCC[C@H](NC(=O)[C@H](CO)NC(=O)[C@H](C)NC(=O)[C@H](CO)NC(C)=O)C(=O)N[C@@H](CCC(=O)O)C(=O)N[C@@H](Cc1c[nH]cn1)C(=O)N[C@H](Cc1ccccc1)C(=O)N[C@@H](CCCNC(=N)N)C(=O)N[C@@H](Cc1c[nH]c2ccccc12)C(=O)NCC(=O)N[C@@H](CCCCN)C(=O)N1CCC[C@H]1C(=O)N[C@H](C(N)=O)C(C)C | Mc1r | – | – | – | 2.8e-05 ± 6e-06 |
| CCC1=C(O)c2c(oc(-c3csc4c(O)cccc34)cc2=O)C(CC)(CC)C1=O | Tubulin alpha-1B chain/TUBB2B (Bos taurus, UniProt P81947+Q6B856) | – | – | – | 4.1 |
| C=C1/C(=C\C=C2/CCC[C@]3(C)[C@@H]([C@H](C)CC(=O)OC)CC[C@@H]23)C[C@@H](O)C[C@@H]1O | Vitamin D3 receptor (VDR, Homo sapiens, UniProt P11473) | reporter gene, agonist, luciferase | – | – | 0.66 |
| CC(C)c1nc2cc(OCCCCN3CCC(c4cccc(Cl)c4Cl)CC3)ccc2s1 | DRD2 | cAMP, agonist, luciferase | – | – | 0.072 |
| O=c1cc(-c2ccc(O)c(O)c2)oc2cc(O)cc(O)c12 | Kcnh1 (Mus musculus, UniProt Q60603) | V1/2 shift, inside-out patch clamp | Xenopus oocytes | – | 4.7 ± 2.4 |
| Cc1nc2cc(OCCCCN3CCC(c4cccc(Cl)c4Cl)CC3)ccc2s1 | DRD2 | cAMP, agonist, luciferase | – | – | 0.076 |
| CCOC(=O)NC(=O)C(c1ccccc1)c1ccccc1 | Grm1 (Rattus norvegicus, UniProt P23385) | – | – | – | 0.248 ± 0.0506 |
| CCc1nc2cc(OCCCCN3CCC(c4cccc(Cl)c4Cl)CC3)ccc2s1 | DRD2 | cAMP, agonist, luciferase | – | – | 0.098 |
| O=C(O)Cc1c[nH]c2ccccc12 | PIN8 (Arabidopsis thaliana, UniProt Q9LFP6, N223A) | transport current, substrate, SSM electrophysiology | proteoliposomes | – | 444 ± 205 |
| CSCC[C@H](NC(=O)[C@H](CO)NC(=O)[C@H](Cc1ccc(O)cc1)NC(=O)[C@H](CO)NC(C)=O)C(=O)N[C@@H](CCC(=O)O)C(=O)N[C@@H](Cc1c[nH]cn1)C(=O)N[C@@H](Cc1ccccc1)C(=O)N[C@@H](CCCNC(=N)N)C(=O)N[C@@H](C)C(=O)NCC(=O)N[C@@H](CCCCN)C(=O)N1CCC[C@H]1C(=O)N[C@H](C(N)=O)C(C)C | Mc1r | – | – | – | 17.7 ± 4.86 |
| Nc1cc(-c2nc3c(c(NCc4ccccc4)n2)CC(N)CC3)ccn1 (stereo not drawn) | BAM complex (Escherichia coli) | OmpT folding, inhibitor | proteoliposomes | added: OmpT and SurA | 39.7 |
| CCCC[C@H](NC(=O)[C@H](CO)NC(=O)[C@H](Cc1ccc(O)cc1)NC(=O)[C@H](CO)NC(C)=O)C(=O)N[C@@H](CCC(=O)O)C(=O)N[C@@H](Cc1c[nH]cn1)C(=O)N[C@H](Cc1ccccc1)C(=O)N[C@@H](CCCNC(=N)N)C(=O)N[C@@H](Cc1c[nH]c2ccccc12)C(=O)NCC(=O)N[C@@H](CCCCN)C(=O)N[C@@H](C)C(=O)N[C@H](C(N)=O)C(C)C | Mc1r | – | – | – | 9.6e-05 ± 3.4e-05 |
| CCc1c(C)nc(-n2nc(C)cc2NC(=O)c2ccccc2SC)[nH]c1=O | Tubulin alpha-1A/beta chain (Sus scrofa, UniProt P02550+P02554) | tubulin polymerization, promoter, turbidity at 340 nm | porcine tubulin | 37 °C, added: 3 mg/mL tubulin | 11 ± 3.2 |
| CCC#CC[C@H](C)[C@H](O)/C=C/[C@H]1CC(F)(F)C(=O)N1CCCCCCC(=O)O | Ptger2 | reporter gene, agonist | – | – | > 10 |
| Cc1nc(N)sc1CCCNC(=N)NCCCCCCCCCCCCNC(=N)N | HRH3 (Homo sapiens, UniProt Q9Y5N1) | GTPγS binding, agonist | – | cell membranes | 34.7 |
| CC(C)c1nc2cc(OCCCCN3CCN(c4cccc(Cl)c4Cl)CC3)ccc2s1 | DRD2 | cAMP, agonist, luciferase | – | – | 0.072 |
| CCCCNc1cc2ccccc2nc1N | TLR8 | reporter gene, agonist | – | – | 4.28 |
| CSCC[C@H](NC(=O)[C@H](CO)NC(=O)[C@H](Cc1ccc(O)cc1)NC(=O)[C@H](CO)NC(C)=O)C(=O)N[C@@H](CCC(=O)O)C(=O)N[C@@H](Cc1c[nH]cn1)C(=O)N[C@@H](Cc1ccccc1)C(=O)N[C@@H](CCCNC(=N)N)C(=O)N[C@@H](Cc1c[nH]c2ccccc12)C(=O)NCC(=O)N[C@@H](C)C(=O)N1CCC[C@H]1C(=O)N[C@H](C(N)=O)C(C)C | Mc1r | – | – | – | 0.012 ± 0.0034 |
| Nc1nc(Cl)nc2c1ncn2[C@H]1C[C@H](O)[C@@H](COP(=O)(O)OP(=O)(O)O)O1 | Ribonucleoside-diphosphate reductase large subunit (Homo sapiens, UniProt P23921) | – | – | – | 1.7 ± 0.5 |
| CSCC[C@H](NC(=O)[C@H](CO)NC(=O)[C@H](Cc1ccc(O)cc1)NC(=O)[C@H](CO)NC(C)=O)C(=O)N[C@@H](CCC(=O)O)C(=O)N[C@@H](Cc1c[nH]cn1)C(=O)N[C@@H](Cc1ccccc1)C(=O)N[C@@H](CCCNC(=N)N)C(=O)N[C@@H](Cc1c[nH]c2ccccc12)C(=O)NCC(=O)N[C@@H](CCCCN)C(=O)N[C@@H](C)C(=O)N[C@H](C(N)=O)C(C)C | Mc1r | – | – | – | 0.026 ± 0.025 |
| BP(=O)(OC[C@H]1O[C@@H](n2ccc(=O)[nH]c2=O)[C@H](O)[C@@H]1O)OP(=O)(O)OP(=O)(O)OP(=O)(O)OC[C@H]1O[C@@H](n2ccc(=O)[nH]c2=O)[C@H](O)[C@@H]1O (stereo partly drawn) | P2Y purinoceptor 6 (Rattus norvegicus, UniProt Q63371) | calcium signal, agonist, fluorescence | – | – | 3.9 |

Some of these lines once more:
| Structure (SMILES) | target | assay | system | conditions | EC50 [µM] |
| --- | --- | --- | --- | --- | --- |
| Cc1nc(N)sc1CCCNC(=N)NCCCCCCCCCCCCNC(=N)N | HRH3 (Homo sapiens, UniProt Q9Y5N1) | GTPγS binding, agonist | – | cell membranes | 34.7 |
| CCCC[C@H](NC(=O)[C@H](CO)NC(=O)[C@H](C)NC(=O)[C@H](CO)NC(C)=O)C(=O)N[C@@H](CCC(=O)O)C(=O)N[C@@H](Cc1c[nH]cn1)C(=O)N[C@H](Cc1ccccc1)C(=O)N[C@@H](CCCNC(=N)N)C(=O)N[C@@H](Cc1c[nH]c2ccccc12)C(=O)NCC(=O)N[C@@H](CCCCN)C(=O)N1CCC[C@H]1C(=O)N[C@H](C(N)=O)C(C)C | Mc1r | – | – | – | 2.8e-05 ± 6e-06 |
| Nc1nc(Cl)nc2c1ncn2[C@H]1C[C@H](O)[C@@H](COP(=O)(O)OP(=O)(O)O)O1 | Ribonucleoside-diphosphate reductase large subunit (Homo sapiens, UniProt P23921) | – | – | – | 1.7 ± 0.5 |
